Results from different studies.
Each numbered part is a random draw from the data of one study; scales do not carry over between parts. Substitutions count along the parent as printed.

Set 1
Target: RNA binding protein fox-1 homolog 2, RRM domain, GST-SBP tag (RBFOX2, Homo sapiens, UniProt O43251-10, residues 100-194)
Technique: RNA Bind-n-Seq
Form: RNA
Medium: in vitro
Concentration: 365 nM
Setting: natural RNA segment, single round, ends assumed
Reference: no-protein control
Reading: higher = stronger binding
All sequences stand within: GGGAGUUCUACAGUCCGACGAUC … UGGAAUUCUCGGGUGCCAA
Construct (chain): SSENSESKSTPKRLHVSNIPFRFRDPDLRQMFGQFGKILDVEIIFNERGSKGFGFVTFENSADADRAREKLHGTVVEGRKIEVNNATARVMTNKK
Oligonucleotide | RBNS enrichment (R)
GACCCUUUGUGUUUUAGUGACUCAGAAAAGUCAAGCCAUUUGCAAAAGUUAGCAGUUUGUUUUGUCAACUUGUAACUGGGUCAUAGCCUUGCUGAGUGAAACCAACUCAU | 0.423
GAUUUCAGGAGAGAGCAGCUUUGAGGAAUGUGGAAAAUCAUAAUUGCCGUCUGGACCAUUGAUUGAUUGUGACCAGUAGCAGAAGGGUGCCUGUUACAUAGAGAGGCUCC | 1.19
ACCUCUGGGAUCACGUUGAGUUCUAUUUAUUUAUUUACUUAUUUAUUUAUUUGUACCCACCCUUCCCUCACUUCUGCCCAGCUGGGCUCCAGAGAGAGGACCCUGCCCAU | 0.318
AAAAAGAGAAACCUUAUCUUUGCUUUGUGGUUCCUUUAAACACACUCACACACACUUGGUCAGAGAUGCUGUGCUUCUUGGAAGCAAGGACUCAAAGGCAAGGUGCACGC | 1.09
GGGUGCUUUGAAAUAUAAAAUGAAAACUUAUUUAUACUGUUUUUACAACAGUCAAAAAGGAAACACACGAAAAUCACUUUUCUGCAACUGAUGAACUAUAUAGACUGGAC | 0.426
GUGUUAAUGCUUCUGAAGCAUCAGGAAGGUUGAAAGCCACUGCUCUAGAGCCAAGUGAGUGCAUGUCUAGGGUUCCCAUGUUUACAGUAAGGACCGGCUCAGGCACUGAC | 6.59
GGGAAAGAAUGGUAUUGUAGAAAAACCCAAGAAAUGACCACGUGGUCAGUUUCAUGGUGAUGGCUACUGUGUACUGUGUAGGUUACCUGGGUCAAGACUGGUCCAGCUUA | 1.56
AUGGAGUUCCAUUCUUGACAUCUACUUUGGACCAAGGAGCAUCCCUAGUUCUUCAUAGGGACUCUUAAAAUGCAGGAGAACCAUCCGAAGUCAACUCGGGGGACAUGCAA | 0.214
UAUCACUCAAUUUUAAAACUAGUAAUUUACUUUGGCUCAGAAAUGUACUAUAUUUAUAAUUAUUGUAUUAUUUAAAUUAAAUAGAAGGUGAUAGAACUGAUAUUUAAAAC | 0.716
CUACUCUGUGGAUGAUUUCCAAACAUUCAAAGCCAAUAGCCUUGUUAUUAACAAGAUAUUUUGAGUACAAUAUGGCUCAUUGACUUUUCCAUUACAUCUGAGGAUUCCAG | 0.205
CUUUAAAUGUCCGGGAAAACUAAUUUCAGUAGCGUAGUUUGAUAGGUUAAAUGAGAUAGCAUUUUUAUAUCAGAGACACCAGAAUGUUGGUGGUCAACUACCUGUGCAAU | 0.695
AAGAGUAGGGACGCCGUUCCAGCCCCCCUUCCUAUCGUGUCCUUGGGUUCGGGUCACUGCGGCGACGACUUGCUCAGACUGUCCCGGCGGCCGGAGUGACUUUCUCGCAC | 0.251

Set 2
Target: ABI1, truncated, D143A, DHFR fusion (Arabidopsis thaliana)
Technique: DHFR PCA, deep sequencing
Medium: yeast
Setting: methotrexate growth selection, single substitutions
With: (+)-ABA 710 µM
Reference: wild-type fitted maximum
Reading: higher = stronger binding
Starting sequence: PYL1, truncated, DHFR fusion (Arabidopsis thaliana); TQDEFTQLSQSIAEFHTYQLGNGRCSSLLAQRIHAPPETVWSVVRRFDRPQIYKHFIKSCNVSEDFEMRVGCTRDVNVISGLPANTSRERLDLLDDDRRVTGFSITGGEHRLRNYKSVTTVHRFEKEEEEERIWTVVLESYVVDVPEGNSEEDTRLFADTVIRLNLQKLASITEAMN
Substitution | relative binding score [%]
L91W | 67.9
V142F | 84.2
V76Y | 99.1
E14D | 89
R24P | 62.8
I52F | 104
R155Q | 103
G148F | 86.5
R155T | 97.9
C72Y | 86.6
V121R | -11.6
Q2Y | 102
E131M | 106

Set 3
Target: TAR DNA-binding protein 43, full length, His tag (TARDBP, Homo sapiens, UniProt Q13148, residues 1-414)
Technique: RNA Bind-n-Seq
Form: RNA
Medium: in vitro
Concentration: 20 nM
Setting: 6-mer, flanks averaged, single round
With: 150 mM KCl
Reference: input library
Reading: higher = stronger binding
Oligonucleotide | 6-mer enrichment (R)
AUAACU | 0.668
ACAUUC | 0.555
UCGAUU | 0.554
UUAUAC | 0.571
ACUAUC | 0.545
UCACUG | 0.645
GCCGCU | 0.837
AUCGAU | 0.575
AUCUAU | 0.551
UCUCUC | 0.539

Set 4
Target: Ras GTPase-activating protein-binding protein 1, RRM domain (G3BP1, Homo sapiens, UniProt Q13283)
Sequence of UniProt Q13283 (whole entry, looked up): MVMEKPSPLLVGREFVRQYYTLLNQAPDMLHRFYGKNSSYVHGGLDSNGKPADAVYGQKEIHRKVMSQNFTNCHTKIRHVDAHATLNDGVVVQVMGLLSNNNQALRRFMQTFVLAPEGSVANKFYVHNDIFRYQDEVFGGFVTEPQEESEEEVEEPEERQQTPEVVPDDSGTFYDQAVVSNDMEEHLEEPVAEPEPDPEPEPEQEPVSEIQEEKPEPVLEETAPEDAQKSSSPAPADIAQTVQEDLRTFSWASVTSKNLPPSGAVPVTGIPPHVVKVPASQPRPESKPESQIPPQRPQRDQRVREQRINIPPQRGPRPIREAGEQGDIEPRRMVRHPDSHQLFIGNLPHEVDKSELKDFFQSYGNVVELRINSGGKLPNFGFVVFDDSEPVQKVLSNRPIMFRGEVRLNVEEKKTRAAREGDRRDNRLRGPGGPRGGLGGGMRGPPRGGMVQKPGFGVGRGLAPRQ
Technique: RNA Bind-n-Seq
Form: RNA
Medium: in vitro
Concentration: 1 µM
Setting: whole 134-nt RNA, ends assumed
With: 150 mM KCl
Reference: input library
Reading: higher = stronger binding
All sequences stand within: GGGAGUUCUACAGUCCGACGAUC … UGGAAUUCUCGGGUGUCAAGG
Oligonucleotide | log2 enrichment
AGUCCUGUGCUACACAUCGUAUGUACCGAAUCAAAUUUUUAAACCCCCAAAUUUAAAAAAGUAUUAUGUUACGCCGUUCGGAUCUGCACU | -0.406
UUAAAGAAAUGUCCACAAGUAACUUUGAAUCAUCUCCUGAAGUAGAAGAAAGGCCUGCUGUGUCUUUGACUCUUGAUCAGAGCCAGUCAC | -0.156
ACCAUGCAGGUGGGCAUCUUUGGGAAGUGGGGCAAGGGGGGGAUAGGGAGGGGGGUAACACUUUGGGAACAGGUGGUCAAAGGUCGUUUC | -0.256
GUCCUGUGCUACACAUCGUAUGUACCGAAUCGGGGUUUGGGGAAAGGGGAAAAAGGGGAAAGUAUUAUGUUACGCCGUUCGGAUCUGCAC | 1.4
AGUCCUGUGCUACACAUCGUAUGUACCGAAUCGGGGCCCCGGCCCCGGGCCCCGGGGAAAGUAUUAUGUUACGCCGUUCGGAUCUGCACU | -0.763
GCAGGAAGUAAAUACAAAUGGAAAUGCUUCGGAUAGUGGCAGGGGUGGGGGUUGCUAAGGAAAGGGUGGGAUGGGAGUGGGUAAAGAGUU | 1.16
ACCAUGCAGGUGGGCAUCUUUGAGAAGUGGGGCAAGGGGGGGAUAGGGAGGGGGGUAACACUUUGGGAACAGGUGGUCCCAGGUCGUUUC | -0.608
UCAAGUCCUGUGCUACACAUCGUAUGUACCGAAUCGGAAAAAAAGGAGGAAAGGAAAGUAUUAUGUUACGCCGUUCGGAUCUGCACUUCC | -0.00948
CCUGUGCUACACAUCGUAUGUACCGAAUCGGGAAAAAGGGAAAAAAAGGGAAAAAAAGGGAAAGUAUUAUGUUACGCCGUUCGGAUCUGC | -0.00187

Set 5
Target: RING finger protein unkempt homolog, zinc fingers 1-6, GST-SBP tag (UNK, Homo sapiens, UniProt Q9C0B0, residues 30-357)
Technique: RNA Bind-n-Seq
Form: RNA
Medium: in vitro
Concentration: not given
Setting: RNA with constant flanks, ends assumed
Reference: input RNA pool
Reading: higher = stronger binding
All sequences stand within: GGGAGUUCUACAGUCCGACGAUC … CAACAGAGGAUUGAGCAUCA
Target sequence (chain): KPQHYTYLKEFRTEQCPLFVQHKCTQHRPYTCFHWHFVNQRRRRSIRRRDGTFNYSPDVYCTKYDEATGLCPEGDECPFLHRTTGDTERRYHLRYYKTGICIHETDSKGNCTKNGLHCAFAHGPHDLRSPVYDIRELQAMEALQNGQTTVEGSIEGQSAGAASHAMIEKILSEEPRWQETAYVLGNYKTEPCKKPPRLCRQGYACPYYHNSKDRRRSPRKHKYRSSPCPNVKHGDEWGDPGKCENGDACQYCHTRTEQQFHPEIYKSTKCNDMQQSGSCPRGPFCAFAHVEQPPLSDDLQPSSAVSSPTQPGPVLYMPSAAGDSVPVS
Oligonucleotide | bound/input enrichment [ratio]
CUGCCUCACCAGUUGGUACAUUUUGUUUUUGAAAGAGGUGGGAUCCAAAAGAGCUGUUUCCCGCCACACUCCAAGCACCUGAGACUUUGGGCACAAGGACACUUUUUUUUUUUUUUUUUU | 1.04
UAUGGUUAUGAGAAGCCAGAGGAACGCUGGUUACCUAUCCAUACUGUGGAAACCAUCAUGAUCCGUGUCAUUUCUAUGCUGGCAGAUCCUAAUGGAGACUCACCUGCAAAUGUAGAUGCU | 0.189
GAUUUUGAGACGGAGCACAAAUUGGACCCUGUAUUUGAUUCUCCACGGAUGUCCCGCCGCCGUUUGCGCCUGGCCACGACAGCAUGCACCCUGGGGGAUGGUGAGGCUGUGGGUGCCGAC | 0.223
UUACAAAGCCAUCUUUACAUGCAUUAAACGAGGGCUACAACAAUAUUGUUUUACAAAUACCCGCACUUUUUUUUCUGUUAUGUACUUAGUGUUAGAGGGUCAAAAUAAUCUUUCUGCUUA | 1.06
GAUCUCGGUGGGCAUGAGCAAGCACGUCGCGUUUGGAAAAAUUAUCUCCCAGCGAUUAAUGGCACCGUUUUUCUGGUGGACUGUGCGGAUCAUUCUCGUCUCAUGGAAUCCAAAGUUGAG | 0.165
CUUCAGAAGAGUAAUGGUGUACUUCCUGAAUUAUUUCAGUGUCAUGGUACUGCAGAUGAGUCCGUUCUUCAUUCUUGGGCAGAAGAGACAAACUCAAUGUUAAAAUCUCUAGGAGUGACC | 0.0905
UGGCCACCUCCUCCUCAGAGUCUCUUCCCAAAAGAAUCCCCUAGCCAGGAUAAUGGGUGGCUCCGCCGAGGCUCAGGGAAGGAACAGGGAGAAGGGUGGCUGUGAGCUCAAGUCCCCCUC | 0.237
GGCUCAUUUGUAAAAUUGUCCUAAUUUUUCCUAGCUUUCAGCCAUUAGAAACUCUUUUAACCGUUCCUUUUGAGUUGUGAGCUCUUCUUCUGUAGCCCUGAAGGGACACUGUAUUCUGUA | 1.94
AAGUGGUUGCGGGAAAUAUUGAUCUGCAGGAAUAAAUUUCUUCUUAAAAAUAAGCAGGCAGACCGAAGUUCCUGUCACUUUCUCCUUUUUUACGGGGUAGGAUGUGAUAUUCCUUCUAGU | 0.225

Set 6
Target: Histone acetyltransferase KAT6A, winged helix 2, GST fusion (KAT6A, Homo sapiens, UniProt Q92794, residues 85-181)
Technique: protein binding microarray
Form: double-stranded DNA, one strand shown
Medium: in vitro
Concentration: not given
Setting: 8-mer, flanks averaged, mean of 2 arrays, mostly near background
Reference: not given
Reading: higher = stronger binding
Residues (chain): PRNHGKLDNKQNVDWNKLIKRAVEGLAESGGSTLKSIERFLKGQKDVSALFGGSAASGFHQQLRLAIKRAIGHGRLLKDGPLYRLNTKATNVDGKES
Oligonucleotide | E-score
ATATGGGA | -0.149
GATAGAGA | -0.0163
GCGCACTA | 0.0373
AGCCTGCC | 0.00778
ACAGTACA | -0.271
TGAAGCCA | -0.0726
GCGGCTAC | 0.216
CTTCAGCA | -0.0556
CGACGCTA | -0.0531
ATAAGATC | -0.0639
ATTCAGTA | -0.063
GCAGTTCC | 0.0367
GACAGTCC | -0.143
ACATTTAT | -0.305
CTACCGGC | 0.0146
GTAATTAC | 0.0118
ATGTGCGC | 0.0488

A few entries again (set 3):
Oligonucleotide | 6-mer enrichment (R)
GCCGCU | 0.837
AUAACU | 0.668
AUCUAU | 0.551
ACUAUC | 0.545
UCACUG | 0.645
UCGAUU | 0.554
UCUCUC | 0.539
ACAUUC | 0.555
AUCGAU | 0.575
UUAUAC | 0.571
